Experimental data gathered from unrelated publications.
A part holds a random share of what one study measured. Substitutions count along the parent as printed.

Sample 1
Target: ABI1, truncated, D143A, DHFR fusion (Arabidopsis thaliana)
Method: DHFR PCA, deep sequencing
Matrix: yeast
Setting: methotrexate growth selection, single substitutions
Together with: (+)-ABA 2500 µM
Relative to: wild-type fitted maximum
Direction: higher = stronger binding
Starting sequence: PYL1, truncated, DHFR fusion (Arabidopsis thaliana); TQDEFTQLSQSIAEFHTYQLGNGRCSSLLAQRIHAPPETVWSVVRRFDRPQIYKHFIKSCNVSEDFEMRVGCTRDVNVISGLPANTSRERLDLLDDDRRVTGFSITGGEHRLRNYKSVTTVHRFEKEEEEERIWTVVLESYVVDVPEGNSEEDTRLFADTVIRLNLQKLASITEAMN
Change | relative binding score
E174V | 94.9%
F66V | 95.9%
F47H | 26.7%
E38G | 96.6%
M68H | 99.9%
R111Q | 86.1%
V118R | 106%
Y141H | 27.7%
R45A | 88%
R98S | 101%
T135W | 8.69%
L164W | 92.9%
L169P | 6.99%
R90L | 80.8%
I162M | 78.5%
R98N | 102%
L94Q | 86.1%
R123F | 95%
L138W | 60.2%
R132P | 111%

Sample 2
Target: RNA binding protein fox-1 homolog 2, RRM domain, GST-SBP tag (RBFOX2, Homo sapiens, UniProt O43251-10, residues 100-194)
Method: RNA Bind-n-Seq
Molecule type: RNA
Matrix: in vitro
Tested at: 365 nM
Setting: natural RNA segment, single round, ends assumed
Relative to: no-protein control
Direction: higher = stronger binding
Constant ends, left off below: GGGAGUUCUACAGUCCGACGAUC … UGGAAUUCUCGGGUGCCAA
Residues (chain): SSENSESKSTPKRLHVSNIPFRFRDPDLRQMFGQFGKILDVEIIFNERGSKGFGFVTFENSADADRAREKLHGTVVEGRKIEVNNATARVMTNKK
Sequence | RBNS enrichment (R)
UAGUGAAGGCCCUGGAUAGGUGGUACCUACUGUCUGACACCCACGGGGAAACUGAGCCAGGUCCAGGCCGAUGAGAAGUUCCCAGUGGGCUGAAGUGGCCACCAGGGGUC | 0.326
AAGACUGUUUUCAUAUGUUAUACUCAGAUAAAGAUUUUAAAUGGUAUUACGUAUAAAUUAAUAUAAAAUGAUUACCUCUGGUGUUGACAGGUUUGAACUUGCACUUCUUA | 0.397
ACCUUCACUGUUUUGAGGGGGGCUGAGACAAGACACCCCCGCUUCUAGGUAUCUUCUAGAGCAGUGAUUCUCAACCUUGCUAAUGCUGUGACCCUUUAAUACAUACAGUU | 0.536
GGGUGCGUCUGCAGCUCCUCCCCUUGGGCAGCCUGGUUCUCCCGGAGGACCUUUCCUUGGGGCCCUGCUUCAUGACGAUGCUGCCUGUGUCACCCUCUACCAUCUGUAAA | 0.422
UAGUGAUUUUAGGGCUUUGUUAUUUAACUUAUUUCAAGGGUGCUGUGCUCAGCCCUGCCCAUGGCUGUGCAGCUCCCUCCGUGCCUCAGAUCUGCUGUAGCCAGUGCAGA | 0.379
AGCUUUUUGUGCGUCUGUGAAAUGUUUUACAGUGUUUCUCAUCAUCUGUUUCCCAGCAAGGUCUUUUUUUUUUCUACAUUGAAGUUCUGUCUAUGUAUCUUAAUCACAAA | 1.01
GCAAAUUAUAAAAGUAAACAGGUUUUUUUGUUUGGUUUUUCAAUCAUAGCAAUCGGAAUUAUUUUAAAUUCAAAAAUUGAUGCCCUCCCAAACCCCCCAAAGUAAAAAUU | 0.518
UGUAUGUUGUUCUUUUGUGUAUUUAUUUGUAUCAUAAACACAUGGGAAAGCAAAGACCAUAAGCACCAUUUUGCAGUUCUAUCUUUUUUUCCAGUUAGCCUAUGUAACCA | 0.559
UGUCUUUUUCCACUGAAGUGUGACAUUUUGUUAGUACAUUUCAGUGUAGUCAUUCAUUUCUAGCUGUACAUAGGAUGAAGGAGAGAUCAGAUACAUGAACAUGUCUUACA | 0.437
GUCUUCUCGUUCAGGCCUGCCUCUGACAGCACUCACCAUGAGGACAUUCCAUCCUUCACCCCCUCCUCUGGCACAGGCCACCACUGCGGUGCUGUGCCUUCAGAUGGGAG | 0.284
CUCCCUUGUCAUCAGUAGUAACCUAUACUCAAGUGCCUGUGUCUUCUCAUCUCACUUAGGAUUGUACCCCAAAGUCCUACAUGAUUGGCUUUAAAUGUCCGGGAAAACUA | 0.616
GUUGUAGAAAGGAAAGUGGCCAGAAAGAACAACUUGGGACCAUGAGUAGGUCAUUAAAUAGCUUAGUGAUUUAUCCUCAUAUAGGGCUUAUAAACCCUGUAUGUGUUUAU | 0.408

Sample 3
Target: Histone acetyltransferase KAT6A, winged helix 2, GST fusion (KAT6A, Homo sapiens, UniProt Q92794, residues 85-181)
Method: protein binding microarray
Molecule type: double-stranded DNA, one strand shown
Matrix: in vitro
Tested at: not given
Setting: 8-mer, flanks averaged, mean of 2 arrays, mostly near background
Relative to: not given
Direction: higher = stronger binding
Target sequence (chain): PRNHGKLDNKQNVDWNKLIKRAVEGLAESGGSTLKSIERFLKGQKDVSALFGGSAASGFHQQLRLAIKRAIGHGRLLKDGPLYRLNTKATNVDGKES
Sequence | E-score
AACAAGCG | 0.0352
GAAAGTAA | -0.0593
AAACGAGA | 0.109
CCGCGTGC | 0.101
GAAGCCCA | -0.119
GCCCCCCA | -0.116
GGCAGAAC | 0.0852
CGGTTGTA | -0.0897
AATGGATC | -0.0596
CGTTCAGA | 0.0049
TCGCCTCA | 0.186
GAGCAGTA | 0.198
AGAGTCTA | -0.211
AGCCGAGA | 0.0398
AAATCACC | 0.00805
ACGCAGAG | 0.208
GGCTAGCA | -0.0748
AAGGAGCC | 0.0357
AATGCACC | 0.0676
CACATGTA | -0.15

Sample 4
Target: Sal-like protein 4, full length isoform A (SALL4, Homo sapiens, UniProt Q9UJQ4, residues 1-1053)
UniProt Q9UJQ4, sequence (whole entry, looked up): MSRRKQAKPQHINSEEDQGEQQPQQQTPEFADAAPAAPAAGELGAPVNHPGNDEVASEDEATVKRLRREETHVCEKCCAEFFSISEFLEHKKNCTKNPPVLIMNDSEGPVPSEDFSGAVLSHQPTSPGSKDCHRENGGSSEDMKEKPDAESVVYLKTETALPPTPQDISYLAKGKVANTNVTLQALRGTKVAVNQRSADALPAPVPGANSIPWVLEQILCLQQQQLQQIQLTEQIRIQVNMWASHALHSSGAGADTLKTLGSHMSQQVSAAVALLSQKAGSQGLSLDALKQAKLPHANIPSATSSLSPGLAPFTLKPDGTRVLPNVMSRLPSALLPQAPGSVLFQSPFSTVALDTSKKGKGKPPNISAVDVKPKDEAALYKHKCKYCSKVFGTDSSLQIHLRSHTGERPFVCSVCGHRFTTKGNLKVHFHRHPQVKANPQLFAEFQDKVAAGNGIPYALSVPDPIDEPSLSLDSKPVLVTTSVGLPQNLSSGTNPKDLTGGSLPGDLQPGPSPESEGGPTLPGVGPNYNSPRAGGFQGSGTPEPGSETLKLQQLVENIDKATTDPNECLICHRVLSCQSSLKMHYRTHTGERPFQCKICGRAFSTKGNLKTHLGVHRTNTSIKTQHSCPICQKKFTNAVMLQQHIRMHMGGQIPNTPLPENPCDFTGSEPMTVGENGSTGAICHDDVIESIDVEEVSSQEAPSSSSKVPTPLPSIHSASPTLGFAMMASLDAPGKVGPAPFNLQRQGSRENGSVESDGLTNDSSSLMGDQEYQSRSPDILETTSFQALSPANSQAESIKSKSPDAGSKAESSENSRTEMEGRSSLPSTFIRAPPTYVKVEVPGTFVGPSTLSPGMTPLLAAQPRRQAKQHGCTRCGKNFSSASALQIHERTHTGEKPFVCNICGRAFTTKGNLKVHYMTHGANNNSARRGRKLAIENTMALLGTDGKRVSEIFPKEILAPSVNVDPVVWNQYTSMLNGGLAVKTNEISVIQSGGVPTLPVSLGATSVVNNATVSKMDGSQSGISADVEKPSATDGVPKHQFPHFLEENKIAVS
Method: universal PBM
Molecule type: double-stranded DNA, one strand shown
Matrix: in vitro
Tested at: 600 nM
Setting: 8-mer, flanks averaged, mean of replicates
Direction: higher = stronger binding
Sequence | E-score
ATTACGGG | -0.0598
TCCTGAAA | 0.145
AACCCTGT | -0.144
CAGTTCAG | -0.167
TGACCGCA | -0.18
ACAAGTAA | 0.235
AACTTCTT | 0.0833
CGAACCGC | -0.337
CCGCGTAG | -0.163
AGCATCGG | -0.201
CGCTTGTA | -0.0183
AAGAGAGT | 0.00361
AGTGGCTA | -0.0712
CTGGTAAC | -0.0662
CAACTGAA | 0.036
ATTACGGC | -0.0649
AACGTAAC | 0.0502
GCGCCACC | -0.344
TCAGGGGA | -0.117
AATACTGG | 0.036
GAAACGGA | 0.0823

Sample 5
Target: RING finger protein unkempt homolog, zinc fingers 1-6, GST-SBP tag (UNK, Homo sapiens, UniProt Q9C0B0, residues 30-357)
Method: RNA Bind-n-Seq
Molecule type: RNA
Matrix: in vitro
Tested at: not given
Setting: RNA with constant flanks, ends assumed
Relative to: input RNA pool
Direction: higher = stronger binding
Constant ends, left off below: GGGAGUUCUACAGUCCGACGAUC … CAACAGAGGAUUGAGCAUCA
Residues (chain): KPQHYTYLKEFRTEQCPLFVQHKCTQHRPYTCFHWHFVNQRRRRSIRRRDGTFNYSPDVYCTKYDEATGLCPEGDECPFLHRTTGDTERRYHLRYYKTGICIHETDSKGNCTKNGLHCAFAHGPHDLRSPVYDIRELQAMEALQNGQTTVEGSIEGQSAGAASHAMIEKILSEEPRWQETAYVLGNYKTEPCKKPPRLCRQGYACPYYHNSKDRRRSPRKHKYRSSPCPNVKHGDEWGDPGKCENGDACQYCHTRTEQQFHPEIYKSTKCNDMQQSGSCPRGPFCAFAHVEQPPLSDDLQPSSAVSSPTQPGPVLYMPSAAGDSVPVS
Sequence | bound/input enrichment
AAAGAUUGAUCUGUGGGCUGGUGAACUUAUCUGGGUCCCAGUCCGAGCAGCAGAGGAGAUCCGCACAGCGCUUGCUGGAGAAUGAUAUCUGUCAAAAGAAACACUUGGAGAGCACUGAGU | 0.103 ratio
UUUGGGCAAUGCUAUGAGUUUCUCACUCUUCAUACAGUGAAAAAGUACUUUCUUCCAAUAACCGAAAUGGUUCCACAGUUUUUAGAAAACUUAACUGAUGAAGAACUGAAAAAAGAAGCA | 0.319 ratio
CUAACGAACUUUACACUCCUGAUGCCAGCAGUAUCCGUUGGAAAUGUUGGCCAGCUUGCAACCGAUCUGAUUAUUUCUACACUGAACAUGUGUAAGAUUGGUUAUUUCUAUACUGAUUGC | 0.0871 ratio
AUUACUCUAAUGGAGUACUAUUCCAAAGAAGCCCUAGGCGAUUCCAAGUCUAAGAAGUCAGCCGCUUAUAAUUACGCAUGCGUACUCACGCUGGUGGUGGCUCAGUCUUCCAGCGGUGUC | 0.217 ratio
UACAAGGUCCAGGAAAAUAUAUAGACUACAGAUGUCCCAGGCUUUGAGUAAGCGCUGAUUUCCGGAGAUGGGUAAUUAACCCAAGUUCUCCAACAUUUUUCACAUAAGAAAUGUGUUUUG | 0.181 ratio
UUAGCUAGUGGAGCCACUUUCUGUAUUGUUACAUGGACAUAUGUAGCAACACAAGUCGGAACCGAAUGGAACCUGUCCCCUGUUGGCAGAGUUACCCCAAAGGAAUGGAGGAAUCAGUAA | 0.194 ratio
UGGUAAAAUUCUGCUCUCAUGAACAAGGAGUCACUUCAUAGAUUGUGAUCAACAGCUUGGCCGUACUUGCUGUAAGGGAUUGAGUUGCGCCAGACUUUGUCUCUUUAUUCUUGUGCAGUG | 0.228 ratio
CUGUCAUGACUGGGUAGUGUGGACUAUCCUGAGCCGUAACUGCUCUGAAUGUUCACUCGAUCCGCCAUGUAUAUUUUAAAUGCUAAUAUUUAAUGAAUGUAAGUUUCAACAUUGUUGCUA | 0.243 ratio
UUGUUAAAAUGCUAUUUCCUUUAUUACCUUGGAAACUGACUCAGCCUCAUGUUGCUCCUAAUCCGUGUUUAAGGCUCCCAUGAGUUGCAGAUAAAAUGAUUUAUUUUAACAAGUAGAAGG | 0.861 ratio
AUAUACUAUUUAUUAUAGCAUUUUGAUACCUCAUUCCGUUUACACAUCUCAAAAGCCGCUCCGUAAUUCUCUUAUUAUUUAAAGAACCACUACACUAGAGAAUGGAAUCUACUGUGGCAA | 0.44 ratio
AUGUGCCUGUACUUAAAAAAAAAAAAAUGGUACACCAGAAAAGGACUGGCAGUCUACUACCACCGUCAAACUUCACCUUAAUUUCGACAUGACUUUUGGAAGCAGGAAGAAAGCUACAAA | 0.147 ratio

A few entries again (sample 5):
Sequence | bound/input enrichment
UUUGGGCAAUGCUAUGAGUUUCUCACUCUUCAUACAGUGAAAAAGUACUUUCUUCCAAUAACCGAAAUGGUUCCACAGUUUUUAGAAAACUUAACUGAUGAAGAACUGAAAAAAGAAGCA | 0.319 ratio
CUAACGAACUUUACACUCCUGAUGCCAGCAGUAUCCGUUGGAAAUGUUGGCCAGCUUGCAACCGAUCUGAUUAUUUCUACACUGAACAUGUGUAAGAUUGGUUAUUUCUAUACUGAUUGC | 0.0871 ratio
AUUACUCUAAUGGAGUACUAUUCCAAAGAAGCCCUAGGCGAUUCCAAGUCUAAGAAGUCAGCCGCUUAUAAUUACGCAUGCGUACUCACGCUGGUGGUGGCUCAGUCUUCCAGCGGUGUC | 0.217 ratio
UACAAGGUCCAGGAAAAUAUAUAGACUACAGAUGUCCCAGGCUUUGAGUAAGCGCUGAUUUCCGGAGAUGGGUAAUUAACCCAAGUUCUCCAACAUUUUUCACAUAAGAAAUGUGUUUUG | 0.181 ratio
UUAGCUAGUGGAGCCACUUUCUGUAUUGUUACAUGGACAUAUGUAGCAACACAAGUCGGAACCGAAUGGAACCUGUCCCCUGUUGGCAGAGUUACCCCAAAGGAAUGGAGGAAUCAGUAA | 0.194 ratio
UGGUAAAAUUCUGCUCUCAUGAACAAGGAGUCACUUCAUAGAUUGUGAUCAACAGCUUGGCCGUACUUGCUGUAAGGGAUUGAGUUGCGCCAGACUUUGUCUCUUUAUUCUUGUGCAGUG | 0.228 ratio
CUGUCAUGACUGGGUAGUGUGGACUAUCCUGAGCCGUAACUGCUCUGAAUGUUCACUCGAUCCGCCAUGUAUAUUUUAAAUGCUAAUAUUUAAUGAAUGUAAGUUUCAACAUUGUUGCUA | 0.243 ratio
UUGUUAAAAUGCUAUUUCCUUUAUUACCUUGGAAACUGACUCAGCCUCAUGUUGCUCCUAAUCCGUGUUUAAGGCUCCCAUGAGUUGCAGAUAAAAUGAUUUAUUUUAACAAGUAGAAGG | 0.861 ratio
AUAUACUAUUUAUUAUAGCAUUUUGAUACCUCAUUCCGUUUACACAUCUCAAAAGCCGCUCCGUAAUUCUCUUAUUAUUUAAAGAACCACUACACUAGAGAAUGGAAUCUACUGUGGCAA | 0.44 ratio
